Measurements collected from several papers.
Each numbered part is a random draw from the data of one study; scales do not carry over between parts. Positions count from the first letter of the parent shown.

Sample 1
Target: ABI1, truncated, D143A, DHFR fusion (Arabidopsis thaliana)
Technique: DHFR PCA, deep sequencing
Sample: yeast
Notes: methotrexate growth selection, single substitutions
Added: (+)-ABA 2500 µM
Relative to: wild-type fitted maximum
Direction: higher = stronger binding
Parent: PYL1, truncated, DHFR fusion (Arabidopsis thaliana); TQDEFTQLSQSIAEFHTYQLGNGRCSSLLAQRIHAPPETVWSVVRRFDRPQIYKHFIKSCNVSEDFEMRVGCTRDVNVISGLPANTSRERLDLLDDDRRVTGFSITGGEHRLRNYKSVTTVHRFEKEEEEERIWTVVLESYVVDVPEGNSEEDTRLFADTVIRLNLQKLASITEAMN; partner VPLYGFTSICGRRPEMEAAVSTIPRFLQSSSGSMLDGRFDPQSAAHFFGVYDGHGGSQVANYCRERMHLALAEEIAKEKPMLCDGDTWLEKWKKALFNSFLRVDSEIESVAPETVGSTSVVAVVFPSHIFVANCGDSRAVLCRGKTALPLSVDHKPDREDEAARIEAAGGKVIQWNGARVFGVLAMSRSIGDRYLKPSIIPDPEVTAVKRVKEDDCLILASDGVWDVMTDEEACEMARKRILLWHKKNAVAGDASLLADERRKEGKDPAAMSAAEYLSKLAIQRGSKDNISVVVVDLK
Substitution | relative binding score [%]
S59N | 91.9
F66T | 92
A35Y | 53
D65E | 95.2
E130G | 103
A30C | 97.5
G21E | 96.5
C72S | 94.2
K168L | 85.4
S87I | 49.7
D97K | 106
S117C | 92.5

Sample 2
Target: Sal-like protein 4, full length isoform B (SALL4, Homo sapiens, UniProt Q9UJQ4-2, residues 1-616)
Technique: universal PBM
Form: double-stranded DNA, one strand shown
Sample: in vitro
Concentration: not given
Notes: 8-mer, flanks averaged, mean of replicates
Direction: higher = stronger binding
Oligonucleotide | E-score
AGAGCGAA | -0.0717
GAAGACTA | 0.0323
AGCTCGAC | -0.219
AAGAGAAC | 0.048
CACCATCA | 0.0304
AAAATACA | 0.316
AATCAGAT | 0.144
ATAGGCTG | -0.0039
CGGTGGAA | -0.245
AGAACTCG | -0.0708
ATGTTTTG | 0.258
CTCAAAAG | -0.00201
AGGTGATA | 0.0516
CCAAATGC | -0.133
ACCGATGA | 0.141
AGTCCTTC | -0.236
GATTGCGC | 0.00989
CAAACGGC | -0.321
AGCTACCT | -0.0394
ACCAGTGC | -0.249
AGTTGGTC | -0.0631
ACATGAAA | 0.193
ATGCCTAA | 0.12
AACCTGAC | -0.0633
TCCGTAGA | 0.0001

Sample 3
Target: CCNF, cyclin fold, Cln2 fusion (human)
Technique: yeast growth competition, sequencing
Sample: yeast
Notes: strong parent motif
Relative to: not given
Direction: higher = stronger binding
Parent: BRCA2 docking peptide (human); PSIKRNLLNEFDR
Substitution | normalised enrichment score
D12F | 3.4
N6M | 0.951
D12R | 2.71
P1V | 4.16
E10T | -0.0302
E10S | 2.97
L8A | 1.69
R5S | 1.4
D12E | 4.03
K4F | 1.52
I3F | 1.74
L7S | 0.321
E10H | 1.9
K4C | 5.67
I3Q | 0.865
N6P | 1.27
K4S | 2.79
N9I | 4.25
P1M | 2.94
S2A | 1.7
L8F | 5.12
F11W | 0.769
I3T | 2.01
E10I | 2.81
N6R | 2.3

Sample 4
Target: CREBZF, bZIP domain (human)
Technique: DHFR protein complementation
Sample: yeast
Notes: single substitutions, most at no-binding floor
Relative to: wild-type JUN-FOS pair
Direction: higher = stronger binding
Parent: JUN, bZIP domain (human); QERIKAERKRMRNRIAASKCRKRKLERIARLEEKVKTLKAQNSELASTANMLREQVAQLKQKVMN; partner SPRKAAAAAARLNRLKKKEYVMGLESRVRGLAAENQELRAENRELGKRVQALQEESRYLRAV
Substitution | binding fitness
A49H | -1.54 natural log
E54K | -1.52 natural log
L31G | -1.48 natural log
S47M | -1.5 natural log
E54M | -1.35 natural log
A49R | -1.36 natural log
S43G | -1.42 natural log
R53M | -1.48 natural log
E32T | -1.5 natural log
A49E | -1.59 natural log
R53V | -1.55 natural log
T48G | -1.51 natural log
A57V | -1.51 natural log
Q41A | -1.49 natural log
A46R | -1.54 natural log
L45E | -1.53 natural log
S43N | -1.53 natural log
A57H | -1.18 natural log
T48R | -1.51 natural log
E32V | -1.48 natural log
I28K | -1.52 natural log
R53D | -1.58 natural log

Sample 5
Target: RING finger protein unkempt homolog, zinc fingers 1-6, GST-SBP tag (UNK, Homo sapiens, UniProt Q9C0B0, residues 30-357)
UniProt Q9C0B0, sequence (30-357, looked up): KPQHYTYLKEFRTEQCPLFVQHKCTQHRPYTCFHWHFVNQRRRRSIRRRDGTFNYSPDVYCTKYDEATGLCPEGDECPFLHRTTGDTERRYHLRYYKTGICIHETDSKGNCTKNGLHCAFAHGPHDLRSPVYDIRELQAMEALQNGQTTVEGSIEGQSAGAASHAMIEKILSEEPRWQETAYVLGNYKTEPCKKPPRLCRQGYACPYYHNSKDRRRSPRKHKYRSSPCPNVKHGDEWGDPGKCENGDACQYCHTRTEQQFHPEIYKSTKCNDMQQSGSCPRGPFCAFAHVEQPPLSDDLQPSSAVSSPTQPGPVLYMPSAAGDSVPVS
Technique: RNA Bind-n-Seq
Form: RNA
Sample: in vitro
Concentration: not given
Notes: RNA with constant flanks, human and mouse sites, ends assumed
Relative to: input RNA pool
Direction: higher = stronger binding
All sequences stand within: GGGAGUUCUACAGUCCGACGAUC … CAACAGAGGAUUGAGCAUCA
Oligonucleotide | bound/input enrichment [ratio]
CUGCAUUUUGUCCACAUGAGAGGAUUGCCUUUCCAAGCCAAUGCCCAAGACAUUAUAAAUUUCUUUGCUCCCCUGAAGCCUGUGAGAAUCACCAUGGAAUACAGCUCCAGUGGGAAGGCC | 0.299
CCUGGUAAAUCUCAGGCAUCUAAUUUGAGAAAACGAGAAACCACAGCGUCUUCUAAAACAGUAGCAGCCAGGUCAGCACAGAAUCAGCCUCGGAAAGAAGAUCAGAAGAGAGCCUUCGUG | 0.137
UACUACUUAUCUGUGUUUCUGGAGCUCUCAGCUGGCUUGCCUGAAACUUCUAAAUAUGAAUAUCGUGUAGAGAUGGUUCACCAGUCCUGUAAUGAUCCUACAAAAAAUAUCAUUCGAGAA | 0.238
UAGCCGUAUGAGGCAAAAGCAGGUGUAGGAGACCCAGGAGCAGGACCCUUCCCUCAGUGGCAGGUUCCUUGUGCCAUCCCACAGAACCGGGAUGGACCCACAGAGGCUCAAGGGAGAUGU | 0.106
AAAUGACAAGCGAUAGGCUAUUGCAACCUGAGAAAGAGAACUGCUCCUUCAUCGUAAAUUUAGAAGACCAAGUAGAUAAUGGAACCAAAGUUGUUACUUUUUUCUAGUAGUUAUUUUUCC | 2.36
UUUGUUGAAAUACUUGUUCCAGUUGCUGCUGCUGUUAAAAAUGAAGUAAAUGUUCCCUGCCUUAGAAAUUUUGUGGAAAGCCUGUAUGACACCACGCUGGAACUUUCUUCUCGAAAGAAG | 2.34
AUGUCAUAUGGAUUAAACAUUGAAAUGCACAAACAGACUGAAAUCGCCAAGAGAUUGAAUACGAUUUGUGCACAAGUCAUCCCAUUUCUGUCUCAGGAACAUCAACAACAGGUGGCCCAG | 0.0629
UUAUGGAGGUACAUACGCUCUGAGAGAUCCAUAAUACUAAUUAACUUCUGCCUGUCUAUCAUCUCAUCCAAUAUCCUCAUACUGGUUGGACAGACUCAGACACAUAAUAAGAGUAUCUGC | 0.222
UUGGCCAGUCAGUAUUCAGUUAAUGAAAUGUAUGCCGAAGCACUUAACACUUAUCAAGUUAUAGUCAAAAAUAAGAUGUUUAGCAAUGCAGGAAUAUUGAAAAUGAAUAUGGGAAAUAUC | 0.4
AUACUUCAGGGUCCUCUGUGGAGGAUGUCUUGAGCCAGAGUUUAAGCCUGACACACAGGCUUUGGUCCUCACUGAGCUGUCUCCAAGACUGGAACUACUUAGUGACUCGGCAAAUUUUCU | 0.175
GAUUUCCUCACGUGCUCGCUUCGGCAGCACAUAUACUAAAAUUGGGACAAUACAGAGAAGAUUAGCGUGGCCCCUGCGCAAGGAUGACACGCAAAUUCGUGAAGCGUUCCAUAUUUUUGU | 0.0687
